Published values of several laboratories.
A part holds a random share of what one study measured. “And” joins repeats or separate records; there may be more than shown.
Chain of UniProt Q8NFD2 (whole entry, looked up): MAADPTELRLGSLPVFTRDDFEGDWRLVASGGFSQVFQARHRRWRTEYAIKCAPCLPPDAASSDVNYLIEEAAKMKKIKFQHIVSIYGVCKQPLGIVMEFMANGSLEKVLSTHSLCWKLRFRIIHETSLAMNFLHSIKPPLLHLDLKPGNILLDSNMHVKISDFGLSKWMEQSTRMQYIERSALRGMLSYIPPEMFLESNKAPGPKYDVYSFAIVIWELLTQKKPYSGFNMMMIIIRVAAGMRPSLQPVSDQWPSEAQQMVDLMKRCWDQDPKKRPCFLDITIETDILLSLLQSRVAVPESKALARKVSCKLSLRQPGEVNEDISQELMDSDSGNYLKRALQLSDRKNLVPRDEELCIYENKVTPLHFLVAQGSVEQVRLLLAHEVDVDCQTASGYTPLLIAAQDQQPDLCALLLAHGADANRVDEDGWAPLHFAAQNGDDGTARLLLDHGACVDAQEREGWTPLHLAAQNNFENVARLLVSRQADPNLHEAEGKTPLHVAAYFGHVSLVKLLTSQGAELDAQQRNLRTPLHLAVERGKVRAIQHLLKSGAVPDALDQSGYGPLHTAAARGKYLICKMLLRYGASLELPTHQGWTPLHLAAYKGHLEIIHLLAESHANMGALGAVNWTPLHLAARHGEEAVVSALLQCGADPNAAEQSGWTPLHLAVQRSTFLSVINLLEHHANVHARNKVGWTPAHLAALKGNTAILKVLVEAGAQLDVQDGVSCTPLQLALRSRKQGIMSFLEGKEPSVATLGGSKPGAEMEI
Chain of UniProt Q14012 (whole entry, looked up): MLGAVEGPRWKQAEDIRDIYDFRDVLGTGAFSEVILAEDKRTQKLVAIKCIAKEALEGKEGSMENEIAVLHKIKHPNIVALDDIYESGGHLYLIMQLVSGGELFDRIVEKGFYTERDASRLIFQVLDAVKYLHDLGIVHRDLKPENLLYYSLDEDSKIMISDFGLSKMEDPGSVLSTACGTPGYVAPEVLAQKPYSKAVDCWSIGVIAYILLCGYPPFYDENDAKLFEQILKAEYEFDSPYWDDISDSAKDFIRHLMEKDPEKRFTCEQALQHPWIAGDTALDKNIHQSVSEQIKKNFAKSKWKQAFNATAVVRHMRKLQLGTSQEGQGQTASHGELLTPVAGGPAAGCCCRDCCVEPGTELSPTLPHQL
Chain of UniProt Q15831 (whole entry, looked up): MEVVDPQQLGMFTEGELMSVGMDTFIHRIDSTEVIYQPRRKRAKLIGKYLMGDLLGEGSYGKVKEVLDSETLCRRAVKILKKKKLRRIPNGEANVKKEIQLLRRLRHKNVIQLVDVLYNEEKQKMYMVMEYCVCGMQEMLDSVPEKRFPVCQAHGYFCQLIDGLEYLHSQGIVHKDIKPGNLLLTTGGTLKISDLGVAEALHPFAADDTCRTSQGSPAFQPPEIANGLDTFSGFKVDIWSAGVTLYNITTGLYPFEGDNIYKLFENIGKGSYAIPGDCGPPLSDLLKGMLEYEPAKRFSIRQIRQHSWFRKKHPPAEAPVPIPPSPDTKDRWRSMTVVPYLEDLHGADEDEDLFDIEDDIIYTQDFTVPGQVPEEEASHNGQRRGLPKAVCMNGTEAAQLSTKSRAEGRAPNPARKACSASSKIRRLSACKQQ
Chain of UniProt Q92630 (whole entry, looked up): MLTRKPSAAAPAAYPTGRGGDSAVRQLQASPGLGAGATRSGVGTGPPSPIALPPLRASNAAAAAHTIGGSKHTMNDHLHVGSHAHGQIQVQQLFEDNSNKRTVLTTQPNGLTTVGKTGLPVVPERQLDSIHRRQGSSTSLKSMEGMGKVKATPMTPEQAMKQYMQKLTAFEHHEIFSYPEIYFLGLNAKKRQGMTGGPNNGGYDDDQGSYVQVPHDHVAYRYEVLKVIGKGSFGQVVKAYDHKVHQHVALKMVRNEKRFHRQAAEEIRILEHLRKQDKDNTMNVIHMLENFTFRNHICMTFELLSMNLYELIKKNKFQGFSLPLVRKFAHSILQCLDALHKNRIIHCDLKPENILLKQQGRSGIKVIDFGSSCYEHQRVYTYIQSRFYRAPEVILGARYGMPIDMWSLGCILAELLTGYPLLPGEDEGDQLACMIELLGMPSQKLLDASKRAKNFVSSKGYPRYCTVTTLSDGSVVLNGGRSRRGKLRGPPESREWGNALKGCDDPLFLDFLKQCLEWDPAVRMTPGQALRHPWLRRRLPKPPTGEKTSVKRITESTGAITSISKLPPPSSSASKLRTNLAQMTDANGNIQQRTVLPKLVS
Chain of UniProt O75676 (whole entry, looked up): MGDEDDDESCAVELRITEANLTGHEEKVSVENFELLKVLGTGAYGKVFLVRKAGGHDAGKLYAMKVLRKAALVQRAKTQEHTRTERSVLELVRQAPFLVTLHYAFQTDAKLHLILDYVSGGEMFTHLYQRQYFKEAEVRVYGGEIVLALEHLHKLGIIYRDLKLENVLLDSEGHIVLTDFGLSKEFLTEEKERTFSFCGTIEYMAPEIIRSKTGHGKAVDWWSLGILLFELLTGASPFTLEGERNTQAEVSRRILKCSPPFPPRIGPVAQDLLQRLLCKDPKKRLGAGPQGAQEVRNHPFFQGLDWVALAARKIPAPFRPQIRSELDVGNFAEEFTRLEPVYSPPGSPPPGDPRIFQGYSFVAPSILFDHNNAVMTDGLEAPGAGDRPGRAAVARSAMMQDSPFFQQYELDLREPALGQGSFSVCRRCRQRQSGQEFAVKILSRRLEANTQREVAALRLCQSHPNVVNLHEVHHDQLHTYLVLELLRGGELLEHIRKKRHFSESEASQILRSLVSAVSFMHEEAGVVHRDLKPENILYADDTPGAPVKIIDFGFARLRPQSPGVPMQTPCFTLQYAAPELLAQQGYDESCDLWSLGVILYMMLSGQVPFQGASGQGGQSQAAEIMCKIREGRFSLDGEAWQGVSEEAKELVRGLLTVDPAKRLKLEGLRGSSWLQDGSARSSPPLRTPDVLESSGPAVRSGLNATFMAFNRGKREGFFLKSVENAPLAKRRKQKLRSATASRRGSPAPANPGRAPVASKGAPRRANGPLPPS

Study 1
SMILES: Cc1ccc(O)c(C)c1-c1cnc2[nH]c(-c3cnc(N4CCC5(CC4)CC(N4CCN(c6ccc(N[C@H]7CCC(=O)NC7=O)cc6F)CC4)CO5)nc3)cc2c1C#N (single isomer, unassigned)
PKMYT1: Membrane-associated tyrosine- and threonine-specific cdc2-inhibitory kinase (PKMYT1, Homo sapiens, UniProt Q99640)
Chain of UniProt Q99640 (whole entry, looked up): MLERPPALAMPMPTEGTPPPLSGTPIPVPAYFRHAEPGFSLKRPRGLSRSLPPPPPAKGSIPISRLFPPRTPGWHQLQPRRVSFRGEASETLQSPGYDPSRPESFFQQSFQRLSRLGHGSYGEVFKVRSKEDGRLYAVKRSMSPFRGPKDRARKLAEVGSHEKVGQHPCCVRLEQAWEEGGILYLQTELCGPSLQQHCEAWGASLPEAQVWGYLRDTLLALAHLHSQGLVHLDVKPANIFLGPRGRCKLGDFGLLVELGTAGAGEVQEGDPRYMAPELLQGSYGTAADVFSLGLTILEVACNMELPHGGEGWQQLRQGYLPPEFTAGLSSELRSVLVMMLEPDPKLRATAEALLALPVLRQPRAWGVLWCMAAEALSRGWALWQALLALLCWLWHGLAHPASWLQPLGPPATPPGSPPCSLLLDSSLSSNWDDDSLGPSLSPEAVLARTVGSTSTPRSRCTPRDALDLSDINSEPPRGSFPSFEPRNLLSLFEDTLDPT
tested on | test | conditions | inhibition
SW1463 | cell proliferation | 41.15 nM | 10.5%
KLE | cell proliferation | 370.37 nM | 64.2%
HCC1569 | automated immunoblotting, refers to: CDK1 phospho-Thr14 | concentration not given, 0 h after washout | 66.5%
RKO | cell proliferation | 4.572 nM | -2.97% and 1.31%
HCC1806 | cell proliferation | 1.524 nM | 5.84% and -2.99% and -0.43%
KLE | cell proliferation | 10000 nM | 85.6%
PKMYT1 |  | 123.5 nM | 97.4% and 98.4%
PKMYT1 |  | 13.72 nM | 82% and 81.4%
PKMYT1 |  | 0.00412 µM | 32%
RKO | cell proliferation | 1111.11 nM | 18.4%

Study 2
Compound: C[C@@H]1CN(c2ccc(-c3cc(C(=O)NCCOCCOCCOCCOCCNC(=O)Cn4cc(-c5[nH]cc(C(=O)N[C@@H](CC(N)=O)c6ccc(F)c(Cl)c6)c5-c5ccc(Cl)cc5F)cn4)ccc3F)cc2NC(=O)c2c[nH]c(=O)cc2C(F)(F)F)C[C@H](C)N1C
Observed: thermal unfolding
Technique: differential scanning fluorimetry
Tested at: 5.5 µM
Direction: higher = more unfolded
WDR5: WD repeat-containing protein 5 (WDR5, Homo sapiens, UniProt P61964)
DCAF1: DDB1- and CUL4-associated factor 1 (DCAF1, Homo sapiens, UniProt Q9Y4B6)
Chain of UniProt Q9Y4B6 (whole entry, looked up): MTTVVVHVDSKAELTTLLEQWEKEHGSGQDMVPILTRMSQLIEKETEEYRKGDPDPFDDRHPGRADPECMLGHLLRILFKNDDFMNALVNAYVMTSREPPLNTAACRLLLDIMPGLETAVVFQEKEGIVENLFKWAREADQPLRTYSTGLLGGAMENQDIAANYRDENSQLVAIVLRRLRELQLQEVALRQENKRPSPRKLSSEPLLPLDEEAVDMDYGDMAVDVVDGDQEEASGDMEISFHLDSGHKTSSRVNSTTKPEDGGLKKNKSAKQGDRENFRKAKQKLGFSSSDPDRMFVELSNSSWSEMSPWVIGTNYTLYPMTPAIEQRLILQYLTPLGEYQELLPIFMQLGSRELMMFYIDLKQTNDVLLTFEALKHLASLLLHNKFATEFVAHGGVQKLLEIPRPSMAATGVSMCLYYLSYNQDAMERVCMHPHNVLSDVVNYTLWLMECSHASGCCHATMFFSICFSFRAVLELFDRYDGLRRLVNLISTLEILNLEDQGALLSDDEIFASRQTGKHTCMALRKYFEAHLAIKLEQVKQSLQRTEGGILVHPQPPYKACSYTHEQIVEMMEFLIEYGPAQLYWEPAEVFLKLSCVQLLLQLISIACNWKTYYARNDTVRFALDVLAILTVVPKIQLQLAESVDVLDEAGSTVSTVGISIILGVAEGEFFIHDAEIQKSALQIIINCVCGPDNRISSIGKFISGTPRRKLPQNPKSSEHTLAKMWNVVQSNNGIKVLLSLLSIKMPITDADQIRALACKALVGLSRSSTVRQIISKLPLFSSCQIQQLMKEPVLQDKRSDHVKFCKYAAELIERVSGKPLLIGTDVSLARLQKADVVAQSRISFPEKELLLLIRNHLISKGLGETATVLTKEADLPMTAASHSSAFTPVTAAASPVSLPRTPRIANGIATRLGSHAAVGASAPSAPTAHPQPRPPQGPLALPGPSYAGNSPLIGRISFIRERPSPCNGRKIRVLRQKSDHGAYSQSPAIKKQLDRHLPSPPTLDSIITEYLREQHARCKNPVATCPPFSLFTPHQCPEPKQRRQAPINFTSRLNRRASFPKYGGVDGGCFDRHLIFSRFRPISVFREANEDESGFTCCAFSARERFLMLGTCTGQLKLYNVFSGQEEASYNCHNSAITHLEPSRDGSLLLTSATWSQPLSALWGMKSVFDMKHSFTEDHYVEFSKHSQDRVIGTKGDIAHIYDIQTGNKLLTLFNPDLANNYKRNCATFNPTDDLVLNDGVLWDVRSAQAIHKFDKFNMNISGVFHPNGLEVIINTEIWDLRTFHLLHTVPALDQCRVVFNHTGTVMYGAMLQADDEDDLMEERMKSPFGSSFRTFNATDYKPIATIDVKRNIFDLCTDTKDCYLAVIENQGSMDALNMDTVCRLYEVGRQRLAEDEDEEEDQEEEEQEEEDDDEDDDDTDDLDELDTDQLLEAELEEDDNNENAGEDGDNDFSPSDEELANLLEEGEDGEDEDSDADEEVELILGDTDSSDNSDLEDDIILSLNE
target | conditions | SYPRO Orange fluorescence [a.u.]
WDR5 | 71.21 °C | 7250
WDR5 | 62.61 °C | 9010
WDR5 | 56.41 °C | 12900
WDR5 | 36.2 °C | 14200
WDR5 | 68.61 °C | 6760
DCAF1 | 28.2 °C | 7890
WDR5 | 90.81 °C | 42600
DCAF1 | 34.8 °C | 8790
WDR5 | 71.41 °C | 7300
DCAF1 | 74.01 °C | 50300
WDR5 | 54.21 °C | 14000

Study 3
SMILES: CC[C@@]1(c2cccc(-c3c(F)cncc3OC)c2)C2=C(Nc3n[nH]cc31)[C@H](F)C(C)(C)CC2=O (single isomer, unassigned)
Tested at: 1 µM
target | test | scale | remaining binding
STK11 (Homo sapiens, UniProt Q15831) | binding, competition with immobilised ligand |  | 100%
ANKK1 (Homo sapiens, UniProt Q8NFD2) | kinase binding, KINOMEscan | relative to: DMSO control | 68%
MAP3K6 (Homo sapiens, UniProt O95382) | kinase binding, KINOMEscan | relative to: DMSO control | 66%
Ribosomal protein S6 kinase alpha-4, N-terminal kinase domain (RPS6KA4, Homo sapiens, UniProt O75676) | kinase binding, KINOMEscan | relative to: DMSO control | 78%
DYRK2 (Homo sapiens, UniProt Q92630) | binding, competition with immobilised ligand |  | 55%
SGK3 (Homo sapiens, UniProt Q96BR1) | binding, competition with immobilised ligand |  | 68%
MAP4K1 (Homo sapiens, UniProt Q92918) | kinase binding, KINOMEscan | relative to: DMSO control | 73%
STK24 (Homo sapiens, UniProt Q9Y6E0) | kinase binding, KINOMEscan | relative to: DMSO control | 100%
CAMK1 (Homo sapiens, UniProt Q14012) | binding, competition with immobilised ligand |  | 54%
ALK (Homo sapiens, UniProt Q9UM73, C1156Y) | kinase binding, KINOMEscan | relative to: DMSO control | 73%
PRKG1 (Homo sapiens, UniProt Q13976) | kinase binding, KINOMEscan | relative to: DMSO control | 88%

Further values, each from its own experiment
VHL with Elongin B/C: von Hippel-Lindau disease tumor suppressor, with Elongin B/C (VHL, Homo sapiens, UniProt P40337)
Compound | tested on | test | system | conditions | endpoint | value
Cc1ncsc1-c1ccc(C2(NC(=O)C3CC(O)CN3C(=O)C(NC(=O)c3ccc(COc4c(-c5c(C)c(F)cc6[nH]ncc56)c(C5CC5)cc5c(N6CC7CC6CN7)nc(OC6CCOCC6)nc45)cc3)C(C)(C)C)CC2)cc1 (stereo not drawn) | VHL with Elongin B/C | SPR, single-cycle | immobilized VCB complex | binary, geometric mean | kon | 31100 M⁻¹ s⁻¹
Cc1ncsc1-c1ccc(C(CO)NC(=O)C2CC(O)CN2C(=O)C(NC(=O)c2ccc(COc3c(-c4c(C)c(F)cc5[nH]ncc45)c(C4CC4)cc4c(N5CC6CC5CN6)nc(OC5CCOCC5)nc34)cc2)C(C)C)cc1 (stereo not drawn) | AsPC-1 | in-cell ELISA |  | 1 nM, individual replicates | phospho-ERK1/2 level | 98.3% and 96.6% and 87.6% and 94.9%
Cc1ncsc1-c1ccc(C2(NC(=O)C3CC(O)CN3C(=O)C(NC(=O)c3ccc(COc4c(-c5c(C)c(F)cc6[nH]ncc56)c(C5CC5)cc5c(N6CC7CC6CN7)nc(OC6CCOCC6)nc45)cc3)C(C)C)CC2)cc1 (stereo not drawn) | VHL with Elongin B/C | SPR, single-cycle | immobilized VCB complex | binary, geometric mean | Kd | 714 nM
Cc1ncsc1-c1ccc(C(CO)NC(=O)C2CC(O)CN2C(=O)C(C(C)C)n2cc(-c3ccc(COc4c(-c5c(C)c(F)cc6[nH]ncc56)c(C5CC5)cc5c(N6CC7CC6CN7)nc(OC6CCOCC6)nc45)cc3)nn2)cc1 (stereo not drawn) | GTPase KRas, GDP-bound (KRAS, Homo sapiens, UniProt P01116, G12D) | binder, single-cycle SPR |  | binary, without VCB | dissociation rate constant (kd) | 0.00312 s⁻¹ and 0.00361 s⁻¹ and 0.0036 s⁻¹

Excerpt of the above (study 3):
target | test | scale | remaining binding
ANKK1 (Homo sapiens, UniProt Q8NFD2) | kinase binding, KINOMEscan | relative to: DMSO control | 68%
MAP3K6 (Homo sapiens, UniProt O95382) | kinase binding, KINOMEscan | relative to: DMSO control | 66%
Ribosomal protein S6 kinase alpha-4, N-terminal kinase domain (RPS6KA4, Homo sapiens, UniProt O75676) | kinase binding, KINOMEscan | relative to: DMSO control | 78%
